Experimental data of several laboratories.
Numbered parts are unrelated; each lists some results of a single study. Changes are numbered by the printed parent chain.

Series 1 — target: CCNB1, cyclin fold, Cln2 fusion (human); method: yeast growth competition, sequencing; matrix: yeast; setting: strong parent motif; relative to: not given; direction: higher = stronger binding
Starting sequence: E2F1 docking peptide (human); PPVKRRLDLETDH; partner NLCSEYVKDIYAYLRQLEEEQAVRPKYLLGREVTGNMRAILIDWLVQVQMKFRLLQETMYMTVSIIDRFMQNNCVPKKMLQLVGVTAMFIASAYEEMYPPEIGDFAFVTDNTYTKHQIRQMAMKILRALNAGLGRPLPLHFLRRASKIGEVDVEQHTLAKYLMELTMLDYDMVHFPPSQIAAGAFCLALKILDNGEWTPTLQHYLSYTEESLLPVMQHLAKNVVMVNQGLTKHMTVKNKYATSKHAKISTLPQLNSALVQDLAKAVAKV
Variant	normalised enrichment score
K4V	3.41
H13Y	1.33
R5K	0.0421
R5N	0.416
H13T	1.61
R5I	0.471
K4A	2.09
P1Y	2.29
R5A L7A	-0.253
T11R	0.784
V3L	0.326
P1S	0.819
L7Q	0.0527
L7C	0.807
E10R	0.571
D12Q	1.94
E10N	1.31
V3P	0.651
P2V	0.872
E10Q	1.04
R5S	0.0837
V3F	0.268
P2S	0.648
T11M	1.31

Series 2 — method: RNA Bind-n-Seq; molecule type: RNA; matrix: in vitro; concentration: 365 nM; relative to: no-protein control; direction: higher = stronger binding
Target: RNA binding protein fox-1 homolog 2, RRM domain, GST-SBP tag (RBFOX2, Homo sapiens, UniProt O43251-10, residues 100-194)
Setting: natural RNA segment, single round, ends assumed
Target sequence (chain): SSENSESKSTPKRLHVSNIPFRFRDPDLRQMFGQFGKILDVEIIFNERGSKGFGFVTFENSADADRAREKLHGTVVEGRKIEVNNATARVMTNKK
Oligonucleotide	RBNS enrichment (R)
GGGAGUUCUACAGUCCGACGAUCGGUCCGUACUAUGCCCAGGUGUCAGCAGGAAACAAGGCCUUGCUCACAGGAGCACAGGCUGUACCACCACAAGGAGCCUCAGAGCGGCCAGUGAGGAAAGGGGAGAGAGCUGGAAUUCUCGGGUGCCAA	0.379
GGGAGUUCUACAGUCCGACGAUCAUUAAACCAAGUAACAUUGGGUCCUUUUUAGGUCCCACUUAAGCUGCUCUCCUGUGUGUGCUGAGGGCCAGCCUCACCCCAGGCUAGCCUGGACCCCCAGUGCUCCCUGUUGGAAUUCUCGGGUGCCAA	0.242
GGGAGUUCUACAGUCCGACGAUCUAGGAAGCUUUGCUUACACUCUGGAGCCUUUACACUCUGAAGGAGAACUUCAGGGUUAUUCCAAGUACUUGUGUGACUUGGAAAAGUAGACUUGGGUUGUGGGAACAGUUUGGAAUUCUCGGGUGCCAA	0.272
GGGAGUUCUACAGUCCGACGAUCAAACAGGAUCUAUCAUGGUGGCACGGAGUCAGCUAGAUGUUGUCUCUUGCUAUCCCUGUGCUAGUUCCAUGUUUUAGAAGCAAAGUGAUACUGGGGAGGAGAGGAGGGCAUGGAAUUCUCGGGUGCCAA	0.586
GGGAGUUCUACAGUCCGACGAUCAAGGUUCUUUUAACUGCUAACUGAAAAUGGAAUGAAAUUGCAUCCAUAGAUACUGAUGGGAUGCCAGGCUUGGAAAGUAGCUAGAAUGUAGAAGGUAUGUUGACAAAUAAUGGAAUUCUCGGGUGCCAA	5.07
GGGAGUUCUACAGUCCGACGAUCACCUCUCCUGAGUAGCUGGGACUACAGGUGCAUGACACCACACCCAGCUAAUUUUUGUAUUUUUAUAGAGAUGGAGUUUUGCCAUGUUGGCCAGCCUGGUCUUGAACUCUUGGAAUUCUCGGGUGCCAA	0.631
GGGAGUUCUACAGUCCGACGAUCAAACACAAGUAUUCAUUAAUGUUUUAUAUCUUCACUAAAAUUCUAUAGUUAUGAAACUAUCAAUCAAGGUGUUAUAUUUCAGUCAGAAGUGAAAAUUUAUGAAGAGUAUUUGGAAUUCUCGGGUGCCAA	0.418
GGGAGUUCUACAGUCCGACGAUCAUUCAAAUGGGAUUGAUUAGUCAAGUAACUUGAGACCUCACAGUAAUCUUCACACUUAACCUUAGACACCUAUGCAGUCAUGUUGGGAGCAGGUUACAAUGUUACUUCAGUGGAAUUCUCGGGUGCCAA	0.282
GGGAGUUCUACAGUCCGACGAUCUAUCCCAGCUUGCUGAGGGGCAGGGAGAGCGCCUCUUCCUCUGGGCAGCGCUAUCUAGAUAGGUAAGUGGGGGCGGGGAAGGGUGCAUAGCUGUUUUAGCUGAGGGACGUUGGAAUUCUCGGGUGCCAA	1.28
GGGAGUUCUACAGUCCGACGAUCCUGCCUGGGAUGUUUUCGGGAACAAGAAUGUAUAUUUGCCUUAUCCCUGAACUUGGUUUAAUCAAAUCAAUGUGUGUAUUAGAAUAAAAGUCACAGCAUCAAAAAGCCAAUGGAAUUCUCGGGUGCCAA	1.02
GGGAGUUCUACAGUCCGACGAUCUCUUCGGUUGCUUUGCACCAGUAUGGUAUGGACAUGGGGUGGACAUUUCCAGGUAAGAGGAUCAGCGGAGAUAACUAGCAAUUUGGAGGUUAGUGUUUAGCUCUACCAAAUGGAAUUCUCGGGUGCCAA	0.784
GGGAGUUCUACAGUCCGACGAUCUGUCUGUGCAAGGCACUACAGCUAUUCACGUGGAGUUACCGCUGCAUUUUCAAAGGUCGGAGAUCUUUCUUCUGCCUGAGUUGGUCAUGUAGCAAUUUUUUCCUAAACACUGGAAUUCUCGGGUGCCAA	0.25

Series 3 — method: protein binding microarray; molecule type: double-stranded DNA, one strand shown; matrix: in vitro; concentration: not given; relative to: not given; direction: higher = stronger binding
Target: Histone acetyltransferase KAT6A, winged helix 1, GST fusion (KAT6A, Homo sapiens, UniProt Q92794, residues 1-85)
Setting: 8-mer, flanks averaged, mean of 2 arrays, mostly near background
Construct (chain): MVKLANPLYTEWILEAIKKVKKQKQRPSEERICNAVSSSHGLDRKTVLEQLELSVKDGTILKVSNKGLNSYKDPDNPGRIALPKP
Oligonucleotide	E-score
AATACTTA	-0.0672
AAGGTACC	-0.0177
CAGTGTGG	-0.124
CCCTAAGG	-0.228
GTCTCCAA	-0.141
ATAAGACA	-0.184
CATGCTTA	0.0399
CGTCAATC	0.0733
GGTATATA	-0.0494
CGGACAAG	0.202
AACCACGT	-0.111
AGGTTGGC	-0.168
CGCACGGA	0.363
TAATATAA	-0.00931
ATTGAGCA	-0.237
AGACAAGG	-0.0356

Series 4 — method: RNA Bind-n-Seq; molecule type: RNA; matrix: in vitro; concentration: not given; setting: RNA with constant flanks, ends assumed; relative to: input RNA pool; direction: higher = stronger binding
Target: RING finger protein unkempt homolog, zinc fingers 1-6, GST-SBP tag (UNK, Homo sapiens, UniProt Q9C0B0, residues 30-357)
UniProt Q9C0B0, sequence (30-357, looked up): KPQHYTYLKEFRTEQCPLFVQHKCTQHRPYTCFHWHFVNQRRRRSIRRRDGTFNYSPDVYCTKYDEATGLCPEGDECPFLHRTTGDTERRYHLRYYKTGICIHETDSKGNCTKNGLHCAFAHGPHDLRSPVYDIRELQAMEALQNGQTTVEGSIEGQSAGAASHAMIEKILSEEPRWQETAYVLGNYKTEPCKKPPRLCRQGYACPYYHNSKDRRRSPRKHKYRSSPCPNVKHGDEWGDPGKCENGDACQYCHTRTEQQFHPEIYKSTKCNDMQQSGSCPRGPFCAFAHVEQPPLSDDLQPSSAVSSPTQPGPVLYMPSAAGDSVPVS
Oligonucleotide	bound/input enrichment [ratio]
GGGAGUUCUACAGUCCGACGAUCCCUGCAGUAGGAAGUUUUGGGGUUUUUUGUUUUUGUUUGGUUUUGGUUUUGUUUUUCUUAAACCGUCUCUUAUGGGUAGCUGGAUUCUCUGCCAUUUGUAAUUUUUCCUCUGAUUCCAAUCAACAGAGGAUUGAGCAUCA	1.41
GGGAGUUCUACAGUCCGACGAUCCAUGAAGGAUGCCAAGAAGUUUAAGGAAUAUGGGAGAAAUAGUGUGGAAAUUAAGAAGAAACCCGGUCUGAUAUUCAAAUGGACAAACUGCCAGUUUUGUUUCCUUUCACUGGCCACAGUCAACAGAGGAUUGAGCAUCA	0.342
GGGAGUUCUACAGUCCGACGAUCAUUUAUCUGUAUGAAAUUCCAGUAGUUAAUUUGAACAUUUAUUUAUAUGACGUUUGUAUUUUCCGGUCUUUAAUACAGUGUUUCUACCUCUCAUUUGUAACUGCAUGCAUUAUUCUUGAACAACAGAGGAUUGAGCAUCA	6.67
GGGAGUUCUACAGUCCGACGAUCGGUAAGCUAAUCGCGGUGAUUGGAGACGAGGACACGGUGACUGGUUUCCUGUUGGGCGGCACCGGGGAGCUAAACAAGAACCGCCACCCUAAUUUCCUGGUAGUGGAGAAGGAUACCACCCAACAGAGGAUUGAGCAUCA	0.206
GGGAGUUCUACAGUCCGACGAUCCUAUUCGACUUAGGCUCCAACGUAACUGCAAUUUAAUGUUGGUAGUAUAGCAAAUUAUGAACCGAUUUGUUGUAUGUUUUGAAGUCACAUGCUUACAUGCUUAAAUCUGGAUAUCAGAAUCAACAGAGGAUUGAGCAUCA	0.4
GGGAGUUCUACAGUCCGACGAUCAUAAUGUUUGAAUCCUUCAAUGUUCCAGGCUUGUACAUUGCUGUGCAGGCUGUUCUUGCCUCCGCUGCAUCCUGGACCUCAAGACAAGUAGGAGAGCGGACGCUGACGGGUACAGUAAUACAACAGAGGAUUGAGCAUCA	0.17
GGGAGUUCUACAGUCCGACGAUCAAUUUUAACCAAGAAUCAGAAGGUAGAAAUUCAGGACCAUGGUUGUCUUCUUCACUCCGAAACCGAUGCACACCUUUGUUCUCGAGAAGGAGGCGAGAGGGAAGGGAUGAGUCUUCAAGACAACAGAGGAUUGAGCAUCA	0.265
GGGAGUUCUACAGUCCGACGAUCCCGCCCGGGUCGUGGAGCCAGGAGCGACGUCACCGCCAUGGCGGGCAUCAAAGCUUUAAUCCGUUUGUCCUUUGGAGGAGCGAUCGGGCUGAUGUUCCUGAUGCUUGGAUGUGCCCUUCCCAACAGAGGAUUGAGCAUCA	0.174
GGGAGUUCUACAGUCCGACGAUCGGAACGGAGCAAUUUACAGCAAUGAGGGAUUUAUACAUGAAAAAUGGACAAGGAUUUGCAUCCGUUUAUUCCAUCACAGCACAGUCCACAUUUAACGAUUUACAAGACCUGAGAGAACAGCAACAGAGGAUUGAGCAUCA	0.296
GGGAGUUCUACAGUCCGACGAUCAUGCACCUGAAGAAACCUGGGGGCUUUGACAUAUCCUUGUUCUACAGAGAUAUCAUCAGCACCGCAGAGGAUGAGGACCUCAGGGUUCACUUUGAGGAAUCCAGCAAGCUAGAAGACCUGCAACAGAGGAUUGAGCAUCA	0.122
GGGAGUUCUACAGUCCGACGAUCCUAGGUUGGCAGUUGACUAGUCAGGAAACCCAUGAGCUACAAAGUUGCUUAAAGCAAAUUAUCCGAAACAUAAAAUUCAAAGCACCUCCAUGUAACACUUUUGUGGAUCUGACUUCUGCACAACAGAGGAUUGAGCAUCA	0.176

Series 5 — method: DHFR PCA, deep sequencing; matrix: yeast; with: (+)-ABA 4.8 µM; relative to: wild-type fitted maximum; direction: higher = stronger binding
Target: ABI1, truncated, D143A, DHFR fusion (Arabidopsis thaliana)
Setting: methotrexate growth selection, single substitutions
Starting sequence: PYL1, truncated, DHFR fusion (Arabidopsis thaliana); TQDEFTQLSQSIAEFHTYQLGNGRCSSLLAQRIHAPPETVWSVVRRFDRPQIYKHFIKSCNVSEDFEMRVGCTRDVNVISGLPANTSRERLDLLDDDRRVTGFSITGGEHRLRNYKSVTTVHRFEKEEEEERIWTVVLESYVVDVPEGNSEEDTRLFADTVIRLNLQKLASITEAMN; partner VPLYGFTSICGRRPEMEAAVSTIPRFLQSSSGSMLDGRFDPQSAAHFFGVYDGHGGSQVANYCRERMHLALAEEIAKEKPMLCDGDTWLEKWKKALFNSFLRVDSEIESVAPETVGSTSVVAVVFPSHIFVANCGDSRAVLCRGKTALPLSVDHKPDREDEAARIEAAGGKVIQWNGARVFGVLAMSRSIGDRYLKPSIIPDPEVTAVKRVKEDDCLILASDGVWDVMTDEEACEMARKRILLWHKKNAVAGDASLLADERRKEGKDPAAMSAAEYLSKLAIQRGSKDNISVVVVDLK
Variant	relative binding score [%]
D95L	14.9
H16S	-15
W41R	21.7
Q7T	70.5
V70A	53.6
D153E	91.9
Q7W	80.3
T119L	51.5
V44Y	-9.61
D48S	2.57
V118T	77
E128T	76.9
K58F	10
N77T	87.3
N22V	77.9
Q167W	14.2
L8W	59.5
E147D	74.2
S87V	34.3
V100H	5.27
E64Q	75.6
P146M	11.7

Series 6 — target: FOSB, bZIP domain (human); method: DHFR protein complementation; matrix: yeast; relative to: wild-type JUN-FOS pair; direction: higher = stronger binding
Setting: single substitutions, most at no-binding floor
Starting sequence: JUN, bZIP domain (human); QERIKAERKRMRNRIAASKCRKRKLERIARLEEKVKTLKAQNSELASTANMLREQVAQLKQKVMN; partner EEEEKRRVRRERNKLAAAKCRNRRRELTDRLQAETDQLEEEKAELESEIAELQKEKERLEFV
Variant	binding fitness
S47I	0.026 natural log
T37H	0.0534 natural log
N42M	-0.266 natural log
L52Y	-0.774 natural log
T48D	-0.504 natural log
E32G	-0.339 natural log
A49T	-0.785 natural log
S43I	-0.0798 natural log
A49K	-0.218 natural log
S43V	-0.226 natural log
L45I	-1.08 natural log
A29L	-0.311 natural log
A49D	-1.2 natural log
E32F	-0.442 natural log
I28P	-0.297 natural log
V35T	-0.388 natural log
Q55L	-0.241 natural log
T37Y	-0.111 natural log
E44R	-0.165 natural log

Some of these lines once more (series 1):
Variant	normalised enrichment score
V3L	0.326
P1S	0.819
L7Q	0.0527
L7C	0.807
E10R	0.571
D12Q	1.94
E10N	1.31
V3P	0.651
P2V	0.872
